Assay results pooled from the literature.
Organism: Escherichia coli

| SMILES | assay | test system | conditions | MIC |
| --- | --- | --- | --- | --- |
| CC1(C)C(NC(=O)C(=NOC2(C(=O)O)CC2)c2csc(N)n2)C(=O)N1OS(=O)(=O)O (centres unmarked) |  | ATCC 2469, NDM-positive | compound alone | 0.5 µg/mL |
| C[C@H](CS)C(=O)Nc1cccc(-c2nn[nH]n2)c1 |  | DH5a pET28-lacUV5-VIM-2 | 50 µM, no meropenem | > 64 µg/mL |
| CC[C@H](C)[C@H](NC(=O)[C@@H](CCCNC(=N)N)NC(=O)[C@H](CCCNC(=N)N)NC(=O)[C@@H]1CCCN1C(=O)[C@@H]1CCCN1C(=O)[C@H](CCCNC(=N)N)NC(=O)[C@@H]1CCCN1C(=O)[C@H](CCCNC(=N)N)NC(=O)[C@@H]1CCCN1C(=O)[C@H](CC(C)C)NC(=O)[C@H](Cc1ccc(O)cc1)NC(=O)[C@@H]1CCCN1C(=O)[C@H](Cc1ccc(O)cc1)NC(=O)[C@H](CCCCN)NC(=O)[C@H](CC(=O)O)NC(=O)[C@@H](N)C(C)C)C(=O)N[C@@H](Cc1ccc(O)cc1)C(=O)N[C@@H](CC(N)=O)C(=O)N[C@H](CCCNC(=N)N)C(N)=O | broth microdilution | MC4100 | 18 h, 37 °C, 25% MHB2 | 16 µg/mL |
| CC[C@H](C)[C@H](NC(=O)[C@@H](NC(=O)[C@H](CCCCN)NC(=O)[C@H](CCC(N)=O)NC(=O)[C@@H](NC(=O)[C@H](Cc1c[nH]c2ccccc12)NC(=O)[C@H](CCCCN)NC(=O)[C@H](CCCCN)NC(=O)[C@H](CC(C)C)NC(=O)[C@H](CCCNC(=N)N)NC(=O)[C@H](Cc1ccccc1)NC(=O)[C@@H](N)C(C)C)[C@@H](C)CC)C(C)C)C(N)=O |  |  | 24 h, 37 °C, Mueller-Hinton broth, human serum 10% | 128 µM |
| CC[C@H](C)[C@H](NC(=O)[C@@H](CCCNC(=N)N)NC(=O)[C@H](CCCNC(=N)N)NC(=O)[C@@H]1CCCN1C(=O)[C@@H]1CCCN1C(=O)[C@H](Cc1c[nH]c2ccccc12)NC(=O)[C@@H]1CCCN1C(=O)[C@H](CCCNC(=N)N)NC(=O)[C@@H]1CCCN1C(=O)[C@H](CC(C)C)NC(=O)[C@H](Cc1ccc(O)cc1)NC(=O)[C@@H]1CCCN1C(=O)[C@@H]1CCCN1C(=O)[C@H](CCCCN)NC(=O)[C@H](CC(=O)O)NC(=O)[C@@H](N)C(C)C)C(=O)N[C@@H](Cc1ccc(O)cc1)C(=O)N[C@@H](CC(N)=O)C(=O)N[C@H](CCCNC(=N)N)C(N)=O | broth microdilution | BW25113 | 18 h, 37 °C, 25% MHB2 | 8 µg/mL |
| COc1c(NC(=O)c2ccc(NC(=O)c3ccc(NC(=O)[C@H](CC(N)=O)NC(=O)c4ccc(NC(=O)[C@@H](N)Cc5ccccc5)cc4)cc3)c(OC)c2O)ccc(C(=O)O)c1O |  | pentapeptide repeat protein clone | 16 h, 37 °C | > 64 µg/mL |
| O=c1n(CCNCCOS(=O)(=O)c2ccccc2)c(=O)n(S(=O)(=O)c2ccccc2)c(=O)n1S(=O)(=O)c1ccccc1 | microbial growth, broth dilution |  |  | 4 µg/mL |
| CC1(C)S[C@@H]2[C@H](NC(=O)[C@H](NC(=O)C3=C(O)C(c4ccccc4F)NC3=O)c3ccccc3)C(=O)N2[C@H]1C(=O)O (some centres unmarked) | broth microdilution | ATCC 35218, low-level TEM-1 | no clavulanic acid | > 200 µg/mL |
| CC[C@H](C)[C@H](NC(=O)[C@H](Cc1c[nH]c2ccccc12)NC(=O)[C@H](CCCNC(=N)N)NC(=O)[C@@H]1CCCN1C(=O)[C@H](CCCNC(=N)N)NC(=O)[C@@H]1CCCN1C(=O)[C@H](CC(C)C)NC(=O)[C@H](Cc1ccc(O)cc1)NC(=O)[C@@H]1CCCN1C(=O)[C@@H]1CCCN1C(=O)[C@H](CCCCN)NC(=O)[C@H](CC(=O)O)NC(=O)[C@@H](N)C(C)C)C(=O)N[C@@H](CCCNC(=N)N)C(=O)N[C@H](CCCNC(=N)N)C(=O)N[C@H](C(=O)N[C@@H](Cc1ccc(O)cc1)C(=O)N[C@@H](CC(N)=O)C(=O)N[C@H](CCCNC(=N)N)C(N)=O)[C@@H](C)CC | broth microdilution | BW25113 | 18 h, 37 °C, 25% MHB2 | 32 µg/mL |
| CCCCCCCC(=O)N[C@@H](CCN)C(=O)N[C@H](C(=O)N[C@@H](CCN)C(=O)N[C@H]1CCNC(=O)[C@H]([C@@H](C)O)NC(=O)[C@H](CCN)NC(=O)[C@H](CCN)NC(=O)[C@H](CCCc2ccccc2)NC(=O)[C@@H](Cc2ccccc2)NC(=O)[C@H](CCN)NC1=O)[C@@H](C)O | broth microdilution | ATCC 25922, colistin-susceptible |  | < 0.125 µg/mL |
| C[C@H](NC(=O)CNC(=O)[C@@H]1CCCN1C(=O)[C@H](CO)NC(=O)CNC(=O)CN)C(=O)N[C@@H](CCCCN)C(=O)N[C@@H](CCCCN)C(=O)N[C@@H](CC(N)=O)C(=O)N[C@H](C(=O)N[C@@H](CCCCN)C(=O)N[C@@H](CO)C(=O)N[C@@H](C)C(=O)N[C@@H](CS)C(=O)NCC(=O)N[C@@H](CCCCN)C(=O)N[C@@H](C)C(=O)N[C@@H](CS)C(=O)N[C@@H](C)C(=O)N[C@@H](CS)C(=O)N[C@@H](Cc1c[nH]cn1)C(=O)O)[C@@H](C)O | broth microdilution | K88, Mueller-Hinton broth | 37 °C | 141 µg/mL |
| CC[C@H](C)[C@H](NC(=O)[C@@H](CCCNC(=N)N)NC(=O)[C@H](CCCNC(=N)N)NC(=O)[C@H](CC(C)C)NC(=O)[C@H](Cc1c[nH]c2ccccc12)NC(=O)[C@H](CCCNC(=N)N)NC(=O)[C@@H]1CCCN1C(=O)[C@H](CCCNC(=N)N)NC(=O)[C@@H]1CCCN1C(=O)[C@H](CC(C)C)NC(=O)[C@H](Cc1ccc(O)cc1)NC(=O)[C@@H]1CCCN1C(=O)[C@@H]1CCCN1C(=O)[C@H](CCCCN)NC(=O)[C@H](CC(=O)O)NC(=O)[C@@H](N)C(C)C)C(=O)N[C@@H](Cc1ccc(O)cc1)C(=O)N[C@@H](CC(N)=O)C(=O)N[C@H](CCCNC(=N)N)C(N)=O | broth microdilution | MC4100 | 18 h, 37 °C, 25% MHB2 | 32 µg/mL |
| CC[C@H](C)[C@H](NC(=O)[C@H](Cc1c[nH]c2ccccc12)NC(=O)[C@H](Cc1ccc(O)cc1)NC(=O)[C@H](CCCCN)NC(=O)[C@H](CC(C)C)NC(=O)[C@H](CO)NC(=O)[C@@H](N)Cc1ccccc1)C(=O)N[C@@H](CCCNC(=N)N)C(=O)N[C@@H](Cc1ccc(O)cc1)C(=O)N[C@@H](CCCCN)C(=O)N[C@@H](CCCNC(=N)N)C(=O)N[C@@H](CCC(N)=O)C(=O)NCC(=O)N[C@@H](C)C(=O)N[C@@H](C)C(=O)N[C@@H](CCCNC(=N)N)C(=O)N[C@@H](Cc1ccccc1)C(N)=O | broth dilution | ATCC 25922, Mueller-Hinton broth | 24 h, 37 °C | 25 µM |
| CC(C)C[C@@H](NC(=O)[C@@H](CC(C)C)NC(=O)[C@@H](CCCCN)NC(=O)[C@@H](CCCCNC(=O)[C@@H](CC(C)C)NC(=O)[C@@H](CC(C)C)NC(=O)[C@@H](CCCCNC(=O)[C@@H](CC(C)C)NC(=O)[C@@H](CCCCN)NC(=O)[C@@H](CCCCNC(=O)[C@@H](CC(C)C)NC(=O)[C@H](N)CCCCN)NC(=O)[C@@H](CC(C)C)NC(=O)[C@H](N)CCCCN)NC(=O)[C@@H](CC(C)C)NC(=O)[C@@H](CCCCN)NC(=O)[C@@H](CCCCNC(=O)[C@@H](CC(C)C)NC(=O)[C@H](N)CCCCN)NC(=O)[C@@H](CC(C)C)NC(=O)[C@H](N)CCCCN)NC(=O)[C@@H](CC(C)C)NC(=O)[C@@H](CC(C)C)NC(=O)[C@@H](CCCCNC(=O)[C@@H](CC(C)C)NC(=O)[C@@H](CCCCN)NC(=O)[C@@H](CCCCNC(=O)[C@@H](CC(C)C)NC(=O)[C@H](N)CCCCN)NC(=O)[C@@H](CC(C)C)NC(=O)[C@H](N)CCCCN)NC(=O)[C@@H](CC(C)C)NC(=O)[C@@H](CCCCN)NC(=O)[C@@H](CCCCNC(=O)[C@@H](CC(C)C)NC(=O)[C@H](N)CCCCN)NC(=O)[C@@H](CC(C)C)NC(=O)[C@H](N)CCCCN)C(N)=O | broth microdilution | Citrobacter freundii blaOXA-48 | 20 h, 37 °C | 16 µg/mL |
| CSCC[C@H](NC=O)C(=O)N[C@@H](CCCNC(=N)N)C(=O)N[C@H](C(=O)NCC(=O)N[C@@H](CC(N)=O)C(=O)N[C@@H](C)C(=O)N[C@@H](CC(N)=O)C(=O)O)[C@@H](C)O | broth dilution | K12 MG1655 efflux knock-out |  | > 200 µM |
| CC(C)C[C@@H](NC(=O)[C@H](NC(=O)[C@@H](CCCCN)NC(=O)[C@@H](CCCCN)NC(=O)[C@@H](CC(C)C)NC(=O)[C@@H](Cc1c[nH]c2ccccc12)NC(=O)[C@@H](CCCCN)NC(=O)[C@@H](Cc1c[nH]c2ccccc12)NC(=O)[C@@H](CC(C)C)NC(=O)[C@@H](CCCCN)NC(=O)[C@@H](CCCCN)NC(=O)[C@H](N)C(C)C)C(C)C)C(N)=O |  |  | 24 h, 37 °C, Mueller-Hinton broth, human serum 10% | 4 µM |
| CC(C)C[C@H](NC(=O)[C@H](CCCCN)NC(=O)C1CCCC=CCCC(NC(=O)[C@H](CCCCN)NC(=O)[C@@H](N)CC(C)C)C(=O)N[C@@H](CCCCN)C(=O)N[C@@H](CC(C)C)C(=O)N[C@@H](CCCCN)C(=O)N2CCC[C@@H]2C(=O)NCC(=O)N[C@@H](CCCCN)C(=O)N[C@@H](CC(C)C)C(=O)N[C@@H](CCCCN)C(=O)N1)C(N)=O (some centres unmarked) | broth microdilution | ATCC 25922, Mueller-Hinton broth | 18 h, 37 °C | 8 µM |
| CC[C@H](C)[C@H](NC(=O)[C@@H](CCCNC(=N)N)NC(=O)[C@H](CCCNC(=N)N)NC(=O)[C@@H]1CCCN1C(=O)[C@@H]1CCCN1C(=O)[C@H](CCCNC(=N)N)NC(=O)[C@@H]1CCCN1C(=O)[C@H](CCCNC(=N)N)NC(=O)[C@@H]1CCCN1C(=O)[C@H](CC(C)C)NC(=O)[C@H](Cc1ccc(O)cc1)NC(=O)[C@H](Cc1c[nH]cn1)NC(=O)[C@@H]1CCCN1C(=O)[C@H](CCCCN)NC(=O)[C@H](CC(=O)O)NC(=O)[C@@H](N)C(C)C)C(=O)N[C@@H](Cc1ccc(O)cc1)C(=O)N[C@@H](CC(N)=O)C(=O)N[C@H](CCCNC(=N)N)C(N)=O | broth microdilution | ATCC 25922 | 18 h, 37 °C, 25% MHB2 | 16 µg/mL |
| Cc1ccc2[nH]c3c(c2c1)CCCC3NCCc1ccc(Br)cc1 (centres unmarked) | broth microdilution | O-19592 |  | > 128 µg/mL |
| CC1(C)[C@H](NC(=O)/C(=N\OCC(=O)N2CCC(C(=O)O)CC2)c2csc(N)n2)C(=O)N1OS(=O)(=O)O | agar dilution | CDC 1001728, NDM-1 |  | 16 µg/mL |

Some of these lines once more:
| SMILES | assay | test system | conditions | MIC |
| --- | --- | --- | --- | --- |
| C[C@H](NC(=O)CNC(=O)[C@@H]1CCCN1C(=O)[C@H](CO)NC(=O)CNC(=O)CN)C(=O)N[C@@H](CCCCN)C(=O)N[C@@H](CCCCN)C(=O)N[C@@H](CC(N)=O)C(=O)N[C@H](C(=O)N[C@@H](CCCCN)C(=O)N[C@@H](CO)C(=O)N[C@@H](C)C(=O)N[C@@H](CS)C(=O)NCC(=O)N[C@@H](CCCCN)C(=O)N[C@@H](C)C(=O)N[C@@H](CS)C(=O)N[C@@H](C)C(=O)N[C@@H](CS)C(=O)N[C@@H](Cc1c[nH]cn1)C(=O)O)[C@@H](C)O | broth microdilution | K88, Mueller-Hinton broth | 37 °C | 141 µg/mL |
| CC[C@H](C)[C@H](NC(=O)[C@@H](CCCNC(=N)N)NC(=O)[C@H](CCCNC(=N)N)NC(=O)[C@H](CC(C)C)NC(=O)[C@H](Cc1c[nH]c2ccccc12)NC(=O)[C@H](CCCNC(=N)N)NC(=O)[C@@H]1CCCN1C(=O)[C@H](CCCNC(=N)N)NC(=O)[C@@H]1CCCN1C(=O)[C@H](CC(C)C)NC(=O)[C@H](Cc1ccc(O)cc1)NC(=O)[C@@H]1CCCN1C(=O)[C@@H]1CCCN1C(=O)[C@H](CCCCN)NC(=O)[C@H](CC(=O)O)NC(=O)[C@@H](N)C(C)C)C(=O)N[C@@H](Cc1ccc(O)cc1)C(=O)N[C@@H](CC(N)=O)C(=O)N[C@H](CCCNC(=N)N)C(N)=O | broth microdilution | MC4100 | 18 h, 37 °C, 25% MHB2 | 32 µg/mL |
